Assay results pooled from the literature.
Each line is one published result; not all experiments were run side by side. Values joined by “and” are separate records of one study, mostly repeats; a detail may differ. ± gives the spread as reported.

SMILES | target | assay | system | conditions | how to read | quantity | value
CS(=O)(=O)NCC1CCOC2(CCN(C(=O)C3(c4ccccc4)CCCCC3)CC2)C1 (centres unmarked) | Polyprotein P1234, nsP2 (Chikungunya virus, UniProt Q8JUX6) | nsP2 ATPase activity, inhibitor, ADP-Glo | – | high micromolar | – | nsP2 ATPase inhibition | active
CC(=O)N[C@@H](Cc1cn([C@@H]2O[C@H](CO)[C@H](O)[C@H](O)[C@H]2O)nn1)C(=O)NCC(=O)N[C@@H](C)C(=O)N[C@@H](CCC(=O)O)C(=O)N[C@@H](C)C(=O)N[C@@H](CCC(=O)O)C(=O)N1CCC[C@H]1C(=O)N[C@@H](CCC(=O)O)C(=O)NCC(=O)N[C@@H](C)C(=O)N[C@@H](CCC(=O)O)C(=O)N[C@@H](C)C(=O)N[C@@H](CCC(=O)O)C(=O)N1CCC[C@H]1C(=O)N[C@@H](CCC(=O)O)C(=O)NCC(=O)N[C@@H](C)C(=O)N[C@@H](CCC(=O)O)C(=O)N[C@@H](C)C(=O)N[C@@H](CCC(=O)O)C(=O)N1CCC[C@H]1C(=O)N[C@@H](CCC(=O)O)C(=O)NCC(=O)N[C@@H](C)C(=O)N[C@@H](CCC(=O)O)C(=O)N[C@@H](C)C(=O)N[C@@H](CCC(=O)O)C(=O)N1CCC[C@H]1C(=O)N[C@@H](CCC(=O)O)C(=O)NCC(=O)N[C@@H](C)C(=O)N[C@@H](CCC(=O)O)C(=O)N[C@@H](C)C(=O)N[C@@H](CCC(=O)O)C(=O)N1CCC[C@H]1C(=O)N[C@@H](Cc1cn([C@@H]2O[C@H](CO)[C@H](O)[C@H](O)[C@H]2O)nn1)C(=O)NCC(=O)NCC(=O)NCC(=O)NCC(N)=O | ctxB, pentamer (Vibrio cholerae, UniProt P01556) | – | – | concentration not given | relative to: galactose | inhibition potency | 160 fold
CC[C@H](C)[C@@H]1NC(=O)[C@H](CC(=O)O)NC(=O)[C@H]([C@@H](C)O)NC(=O)[C@@H]2CSSC[C@@H]3NC(=O)[C@H](CC(C)C)NC(=O)[C@H](CC(N)=O)NC(=O)[C@H](CC(C)C)NC(=O)[C@H](CCCNC(=N)N)NC(=O)[C@H](Cc4ccc(O)cc4)NC(=O)[C@H](CC(N)=O)NC(=O)[C@H](CCSC)NC(=O)[C@H](CO)NC(=O)[C@H]([C@@H](C)O)NC(=O)[C@H](CCCNC(=N)N)NC(=O)[C@H](CSSC[C@H](NC(=O)[C@H]([C@@H](C)O)NC(=O)[C@H](CCCCN)NC(=O)[C@H](CCCNC(=N)N)NC3=O)C(=O)NCC(=O)N[C@@H](CO)C(=O)N[C@H](C(=O)O)CSSC[C@H](NC(=O)[C@@H](NC(=O)[C@@H](N)CCCNC(=N)N)[C@@H](C)O)C(=O)N[C@@H](CCCCN)C(=O)N[C@@H](CC(=O)O)C(=O)N[C@@H](CC(C)C)C(=O)N[C@@H]([C@@H](C)CC)C(=O)N3CCC[C@H]3C(=O)N[C@@H](C(C)C)C(=O)N[C@@H](CO)C(=O)N[C@@H](CCC(=O)O)C(=O)N2)NC(=O)[C@H](CCCNC(=N)N)NC1=O | KcsA-Shaker chimera channel | two-electrode voltage clamp | Xenopus oocytes | – | relative to: wild type toxin | fold decrease in affinity | ~240 fold
O=C1SCCC1NC(C(=O)NCc1ccccc1)C1CC1 (centres unmarked) | Thiosulfate sulfurtransferase (TST, Homo sapiens, UniProt Q16762) | activator, measured: potassium cyanide | – | 34.2 µM, added: sodium thiosulfate 60 mM | – | Km | 5.5 ± 0.87 mM
O=C(NCCc1cccc(F)c1)[C@@H](c1cncnc1)N(C(=O)[C@H](F)Cl)c1ccc(S(F)(F)(F)(F)F)cc1 | Replicase polyprotein 1ab, main protease (rep, Severe acute respiratory syndrome coronavirus 2, UniProt P0DTD1) | enzyme activity, inhibitor | – | – | – | kinact | 0.0056 s⁻¹
Cc1ccc(N)cc1C(=O)NC1(c2ccc3c4c(cccc24)CC3)CC1 | Replicase polyprotein 1a, papain-like protease (Severe acute respiratory syndrome coronavirus 2, UniProt P0DTC1) | binding | – | 10 µM | – | thermal shift (ΔTm) | 11.6 °C and 12.2 °C and 12.6 °C
CNC(C)C1C(O)CC2(C)C3CCC4C(C)(C)C(NC)CCC45CC35CCC12C (centres unmarked) | Spike glycoprotein (Severe acute respiratory syndrome coronavirus 2, UniProt P0DTC2) | binding | – | – | – | kon | 626 M⁻¹ s⁻¹
CC(C)C[C@@H]1NC(=O)[C@H](CCCNC(=N)N)NC(=O)[C@@H]2CCCN2C(=O)[C@@H]2CSSC[C@H](NC(=O)CNC(=O)[C@@H]3CCCN3C(=O)[C@H](CCCCN)NC(=O)[C@H](CC(=O)O)NC(=O)[C@@H](NC(=O)CN)C(C)C)C(=O)N[C@@H](CCCNC(=N)N)C(=O)N[C@@H](Cc3ccc(O)cc3)C(=O)N[C@@H](CC(C)C)C(=O)N[C@@H](Cc3ccccc3)C(=O)NCC(=O)NCC(=O)N[C@H]3CSSC[C@H](NC(=O)CNC1=O)C(=O)N[C@@H](CCCCN)C(=O)NCC(=O)N[C@@H](CCCCN)C(=O)NCC(=O)N[C@@H](Cc1c[nH]cn1)C(=O)N[C@@H](CC(=O)O)C(=O)N[C@@H](Cc1ccc(O)cc1)C(=O)N[C@H](C(=O)N[C@@H](C)C(=O)N[C@@H](Cc1c[nH]c4ccccc14)C(=O)N[C@@H](CC(=O)O)C(=O)NCC(=O)N[C@H](C(=O)N[C@@H](Cc1ccccc1)C(=O)N[C@@H](CO)C(=O)N[C@@H](CC(=O)O)C(=O)O)[C@@H](C)O)CSSC[C@H](NC(=O)[C@H](CC(=O)O)NC(=O)[C@H](CC(=O)O)NC(=O)[C@H](CC(=O)O)NC(=O)[C@H](CO)NC(=O)[C@H](CCCCN)NC3=O)C(=O)N2 | Sodium channel protein type 9 subunit alpha (SCN9A, Homo sapiens, UniProt Q15858) | – | HEK293 | 1 µM, test -10 mV holding -80 mV | – | fast inactivation time constant | 2.7 ± 0.4 ms
CC[C@H](C)[C@@H]1NC(=O)[C@H](CCCNC(=N)N)NC(=O)[C@H](CO)NC(=O)[C@H](CCC(=O)O)NC(=O)[C@H](CC(=O)O)NC(=O)CNC(=O)CNC(=O)[C@H]([C@@H](C)O)NC(=O)[C@H](Cc2ccccc2)NC(=O)[C@H](CO)NC(=O)[C@H]([C@@H](C)O)NC(=O)[C@H](C)NC(=O)[C@@H]2CSSC[C@@H](C(=O)N[C@@H](Cc3ccc(O)cc3)C(=O)N[C@@H](Cc3ccccc3)C(=O)N[C@H](C(=O)N[C@H](C(=O)NCC(=O)O)[C@@H](C)O)[C@@H](C)O)NC(=O)[C@H]([C@@H](C)O)NC(=O)[C@H](CSSC[C@H](NC(=O)[C@H](CCC(=O)O)NC(=O)[C@H](CO)NC(=O)[C@H](CCCCN)NC(=O)[C@H](Cc3ccc(O)cc3)NC(=O)[C@@H]3CCCN3C(=O)[C@H](Cc3ccccc3)NC(=O)[C@H](CCCCN)NC(=O)[C@H](CCCNC(=N)N)NC(=O)[C@H](CCCCN)NC(=O)[C@H](CCCCN)NC(=O)[C@H](Cc3ccc(O)cc3)NC(=O)[C@@H]3CCCN3C(=O)[C@@H](NC(=O)[C@H](CC(=O)O)NC(=O)[C@H](CCCCN)NC(=O)[C@H](CCCCN)NC(=O)[C@@H](NC(=O)[C@@H](NC(=O)[C@@H](N)CCC(=O)O)C(C)C)[C@@H](C)CC)[C@@H](C)O)C(=O)N[C@@H](CC(C)C)C(=O)N[C@@H](CCCCN)C(=O)N[C@@H](C)C(=O)N2)NC(=O)[C@H](CCCCN)NC(=O)[C@H](Cc2ccccc2)NC(=O)[C@H](Cc2ccccc2)NC(=O)CNC(=O)[C@@H]2CCCN2C(=O)[C@H](CCCCN)NC(=O)CNC(=O)[C@H](CCC(=O)O)NC(=O)[C@H](CCC(N)=O)NC1=O | Potassium voltage-gated channel subfamily KQT member 4 (KCNQ4, Homo sapiens, UniProt P56696, D288A) | potassium current, whole-cell patch clamp | – | 10 µM | relative to: wild type | loss of inhibition | ~97%
COc1cc([N+](=O)[O-])cc(/C=N/NC(=O)[C@H]2COc3ccccc3O2)c1O | uncharacterized protein (Candidatus Liberibacter solanacearum, UniProt A0A094YYW1) | inhibitor | – | concentration not given, outcome inhibited | relative to: mock | phosphatase activity | inhibited
CC(=O)NCCOCCOCCOCCn1cc(CNC(=O)c2cc(O[C@H]3O[C@H](CO)[C@H](O)[C@H](O)[C@H]3O)cc([N+](=O)[O-])c2)nn1 | ctxB (Vibrio cholerae, UniProt P01556) | binding | – | – | – | log IC50 | -2.39
CSCC[C@H](NC(=O)[C@H](CCN)NC(=O)[C@@H](NC(=O)[C@H](Cc1c[nH]c2ccccc12)NC(=O)[C@H](CCCNC(=N)N)NC(=O)[C@@H](N)CCNc1ccc([N+](=O)[O-])cc1[N+](=O)[O-])[C@@H](C)O)C(=O)N[C@@H](CC(C)C)C(N)=O | Botulinum neurotoxin type E (Clostridium botulinum, UniProt Q00496) | enzyme activity, inhibitor | – | concentration not given | – | inhibition | 0%
CCOC(=O)/C=C/[C@H](C[C@@H]1CCNC1=O)NC(=O)[C@H](Cc1ccccc1)NC(=O)[C@H](COC(C)(C)C)NC(=O)OCc1ccccc1 | Genome polyprotein, 3C protease (Human poliovirus 1 Mahoney, UniProt P03300) | protease activity, cell-based reporter | poliovirus | – | – | FLuc reporter expression | increased
CC(C)(C)OC(=O)C[C@H](NC(=O)OCc1ccccc1)C(=O)CBr | Replicase polyprotein 1ab, main protease (rep, Severe acute respiratory syndrome-related coronavirus, UniProt P0C6X7) | enzyme activity, inhibitor | – | concentration not given | – | time to onset of irreversible inhibition | > 12 h

Some of these lines once more:
SMILES | target | assay | system | conditions | how to read | quantity | value
CC(=O)N[C@@H](Cc1cn([C@@H]2O[C@H](CO)[C@H](O)[C@H](O)[C@H]2O)nn1)C(=O)NCC(=O)N[C@@H](C)C(=O)N[C@@H](CCC(=O)O)C(=O)N[C@@H](C)C(=O)N[C@@H](CCC(=O)O)C(=O)N1CCC[C@H]1C(=O)N[C@@H](CCC(=O)O)C(=O)NCC(=O)N[C@@H](C)C(=O)N[C@@H](CCC(=O)O)C(=O)N[C@@H](C)C(=O)N[C@@H](CCC(=O)O)C(=O)N1CCC[C@H]1C(=O)N[C@@H](CCC(=O)O)C(=O)NCC(=O)N[C@@H](C)C(=O)N[C@@H](CCC(=O)O)C(=O)N[C@@H](C)C(=O)N[C@@H](CCC(=O)O)C(=O)N1CCC[C@H]1C(=O)N[C@@H](CCC(=O)O)C(=O)NCC(=O)N[C@@H](C)C(=O)N[C@@H](CCC(=O)O)C(=O)N[C@@H](C)C(=O)N[C@@H](CCC(=O)O)C(=O)N1CCC[C@H]1C(=O)N[C@@H](CCC(=O)O)C(=O)NCC(=O)N[C@@H](C)C(=O)N[C@@H](CCC(=O)O)C(=O)N[C@@H](C)C(=O)N[C@@H](CCC(=O)O)C(=O)N1CCC[C@H]1C(=O)N[C@@H](Cc1cn([C@@H]2O[C@H](CO)[C@H](O)[C@H](O)[C@H]2O)nn1)C(=O)NCC(=O)NCC(=O)NCC(=O)NCC(N)=O | ctxB, pentamer (Vibrio cholerae, UniProt P01556) | – | – | concentration not given | relative to: galactose | inhibition potency | 160 fold
